Experimental data collected from several papers.
Parts stem from different laboratories: compare values within a part only.

Study 1
Target: Prothrombin, mature alpha-thrombin (F2, Homo sapiens, UniProt P00734)
Technique: aptamer microarray, sandwich
Form: DNA with 2'F-ANA
Medium: in vitro
Concentration: 200 nM
Setting: whole 15-mer aptamer, many near background
Added: Cy3 exosite-II aptamer, 400 nM
Reading: higher = stronger binding
Sequence: GGTTGGTGTGGTTGG
Modification	mean fluorescence intensity
2'F-ANA at 1 5 7 12	114 a.u.
2'F-ANA at 1 2 3 4 5 6 7 8 12 13 14	58 a.u.
2'F-ANA at 11 13 15	459 a.u.
2'F-ANA at 10 14 15	107 a.u.
2'F-ANA at 2 3 4 7 8 10 14	202 a.u.
2'F-ANA at 1 2 5 6 8 9 10 12 15	50.4 a.u.
2'F-ANA at 1 3 7 9 10	99.3 a.u.
2'F-ANA at 5 6 8 9 12 13 14 15	52.7 a.u.
2'F-ANA at 4 6 9 10 12 14	79.6 a.u.
2'F-ANA at 1 3 4 6 8 9 10 11 14 15	52.7 a.u.
2'F-ANA at 1 2 3 4 6 7 11 12 14 15	70.4 a.u.
2'F-ANA at 2 3 4 5 7 8 9 10 13 14	51.7 a.u.
2'F-ANA at 1 2 3 4 5 7 10 11 12 14 15	48 a.u.
2'F-ANA at 2 5 9 13 14 15	62.8 a.u.
2'F-ANA at 1 5 6 8 9 10 11 12 13 15	52.7 a.u.
2'F-ANA at 1 7 8 11 12 14	74.4 a.u.
2'F-ANA at 1 4 6 7	119 a.u.
2'F-ANA at 1 5 8 9 10 11 15	46.4 a.u.
2'F-ANA at 3 5 6 7 8 12 13 15	192 a.u.
2'F-ANA at 4 8 12 14 15	133 a.u.
2'F-ANA at 2 3 4 8 9 10 15	245 a.u.
2'F-ANA at 1 5 8 9 11 13 15	50.6 a.u.
2'F-ANA at 12	1020 a.u.
2'F-ANA at 3 5 6 8 13	94.3 a.u.
2'F-ANA at 4 5 8 9 11 14 15	65.3 a.u.

Study 2
Target: RING finger protein unkempt homolog, zinc fingers 1-6, GST-SBP tag (UNK, Homo sapiens, UniProt Q9C0B0, residues 30-357)
Technique: RNA Bind-n-Seq
Form: RNA
Medium: in vitro
Concentration: not given
Setting: RNA with constant flanks, human and mouse sites, ends assumed
Relative to: input RNA pool
Reading: higher = stronger binding
All sequences stand within: GGGAGUUCUACAGUCCGACGAUC … CAACAGAGGAUUGAGCAUCA
Construct (chain): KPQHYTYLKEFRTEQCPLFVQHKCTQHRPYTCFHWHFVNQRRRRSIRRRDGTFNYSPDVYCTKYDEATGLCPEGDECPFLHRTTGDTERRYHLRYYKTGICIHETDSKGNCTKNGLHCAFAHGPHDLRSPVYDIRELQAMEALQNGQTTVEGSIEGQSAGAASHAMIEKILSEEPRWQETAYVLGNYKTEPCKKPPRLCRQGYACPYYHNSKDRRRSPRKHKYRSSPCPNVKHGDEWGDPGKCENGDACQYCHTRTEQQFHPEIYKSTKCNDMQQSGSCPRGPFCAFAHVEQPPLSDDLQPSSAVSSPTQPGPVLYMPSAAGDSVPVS
Sequence	bound/input enrichment [ratio]
CUUGGUUUGCCUAUGUCAAGAUCACAGCCUUUGCAAAAUGUUAGCACAGUGCUGCAGAAGCCUAAUCCUCUCUAUAAUCAGAAUACAGAUAUGGUCCAGAAAUCAGUCAGCAAAACCUUG	0.219
UGGUUUUUGCAGGAAGAAAAAAGAGAGUGCUUUGGAGCUUGUCUGUUUACCUGUUACGAUCUUUUAAGGCCAGAUGUCGUCCUAGAAACUGCAUGGAGGCACAAUAUCAUGGAUUUUGCC	0.35
AUUUUUGACCUGUACAGAAGAAGAUGGGGUGCUGGUUUACCACCAUGCCCAGGAUGUCAUUUUAGAAGUCAUUUACACUGACCCUGUGGAUCUUUCUGUGGGCACCGUGGCAGAAAUCAC	0.283
AGAGGGAGCCAAACAAAGCUGCUGUGCUAUAUGAUGCUGUUUUCUUUAUUUGUCUUUUUUAUCAUUUAUUGGAUUAUUAAACUGAGGUGAUGCAUGUAAUUGUGAAUUUGGAAUUUGUUC	0.352
AACAGACUUGUAAACUCUGGGAUCUACAAGGCAGCUUUCCCACUCCAUGAUUGCAAAUUCCGCCGUCAGUCAGAGGAUCCCAGCUGCCCUAAUGAACGGUACCUUCUGUACAGAGAAUGG	0.0845
CUGGAUUUUUUUUUCUUUAUAUUUUGGGUACUGGAGCUUUUAAAAAUGUUUGGUUUCAGGUAUUUUUAUUCAUGUGAAGUGUAUAUGAUUCUCUUGAGAUAAGGUUUUAAGCUAAAAUGU	0.913
CCUUCCCUGCCUCUCGGUGCUAUGCGUGGUCCUCCUCGGCCUCCCACUUGUGGGGGAAAGGGUUUUCUCUUUCUUUCUGUGUGUUUUGAGCCAGCACAGUUACCAAAAUUGAACUUGCCG	0.157
GUACGAGUUGAAUGGAUCGCAGCAGUUACCAUUGCUGCUGGGACAGCUGCAAUUGGUUAUCUAGCUUACAAAAGAUUUUAUGUUAAAGAUCAUCGAAAUAAAGCUAUGAUAAACCUUCAC	0.161

Study 3
Target: Histone acetyltransferase KAT6A, winged helix 1, GST fusion (KAT6A, Homo sapiens, UniProt Q92794, residues 1-85)
Technique: protein binding microarray
Form: double-stranded DNA, one strand shown
Medium: in vitro
Concentration: not given
Setting: 8-mer, flanks averaged, mean of 2 arrays, mostly near background
Relative to: not given
Reading: higher = stronger binding
Target sequence (chain): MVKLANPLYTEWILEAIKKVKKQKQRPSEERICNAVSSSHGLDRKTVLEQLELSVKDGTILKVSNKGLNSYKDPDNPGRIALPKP
Sequence	E-score
TGCCGACA	0.245
CAATTTCG	-0.072
CCCCTTCC	-0.0366
GAGACGAA	-0.0213
TCACGCGA	0.136
AGAAGGGC	-0.0509
CTTAGGAA	-0.206
GCGAAACC	0.144
CATCGGAG	-0.0544
AACTGACG	0.00455
ACTGGATG	-0.209
AAACGACC	-0.0505
ATCATACA	-0.0695
GTATCTCA	0.0314
ACTTATTA	-0.13
GGGCACCA	-0.0942
GCTGATTA	0.0569
AGCAATCG	-0.00115
AAACCATT	-0.144
CGAGTCTA	-0.00738
AAAGATAG	-0.136
GCCAATCC	-0.0471
GTCATGGA	-0.152
CCCCGCGC	0.425
CCCACCGA	-0.156

Study 4
Target: Ras GTPase-activating protein-binding protein 1, C-terminal RGG region (G3BP1, Homo sapiens, UniProt Q13283)
Chain of UniProt Q13283 (whole entry, looked up): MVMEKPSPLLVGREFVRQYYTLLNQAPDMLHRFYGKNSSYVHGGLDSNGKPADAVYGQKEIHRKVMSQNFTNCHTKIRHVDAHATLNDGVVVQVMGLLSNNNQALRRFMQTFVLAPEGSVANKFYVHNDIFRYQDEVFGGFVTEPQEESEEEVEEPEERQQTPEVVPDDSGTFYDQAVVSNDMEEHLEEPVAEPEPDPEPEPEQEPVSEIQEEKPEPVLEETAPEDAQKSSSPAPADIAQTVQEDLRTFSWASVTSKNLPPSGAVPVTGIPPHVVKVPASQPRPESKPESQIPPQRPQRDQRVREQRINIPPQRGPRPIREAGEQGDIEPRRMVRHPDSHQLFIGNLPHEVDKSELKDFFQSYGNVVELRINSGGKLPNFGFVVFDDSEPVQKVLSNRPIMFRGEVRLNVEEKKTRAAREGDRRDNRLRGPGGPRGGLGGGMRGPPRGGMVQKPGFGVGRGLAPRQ
Technique: RNA Bind-n-Seq
Form: RNA
Medium: in vitro
Concentration: 1 µM
Setting: whole 134-nt RNA, ends assumed
Added: 150 mM KCl
Relative to: input library
Reading: higher = stronger binding
All sequences stand within: GGGAGUUCUACAGUCCGACGAUC … UGGAAUUCUCGGGUGUCAAGG
Sequence	log2 enrichment
GGGUGGACACUGACGAGCUGGACAGCAACGUGGACGACUGGGAAGAGGAGACCAUUGAGUUCUUCGUCACUGAAGAAAUCAUUCCCCUCG	-1.24
GCAGGAAGUAAAAACAAAUGGAAAUGCUUCGGAUAGUGGCAGGGGUGGGGGUUGCUAAGGAAAGGGUGGGAUGGGAGUGGGUAAAGAGUA	1.91
GCAGGAAGUAAAAACAAAUGGAAAUGCUUCGGAUAGUGGCAGGGGUGGGGGUUGCUAAGGAAAGGGUGGGAAAGGAGUGGGUAAAGAGUU	1.89
AGUGACCAUUUUAGUUAAAUUUUGUUCCUCUUCCCCCUUUUCACUUUCCUGGAAGAUCGAUGUCCCGAUCAGGAAGGUAGAGAGUUUUCC	-0.671
GCUUUGCCUUCACUUAUUUCUUUGCUUUUUAAAAACUAUUUGUAAUGUAAUUUUAAUGCAUUUUUUACAGGCCCAGUAAUGGUUAAAUAC	-0.913
AAGUCCUGUGCUACACAUCGUAUGUACCGAAUCGGGCCCCGGGGCCCCGGCCCCGGGAAAGUAUUAUGUUACGCCGUUCGGAUCUGCACU	-2.47
ACCAUGCAGGUGGGCAUCUUUGGGAAGUGGGGCAAGGGGGGGAUAGGGAGGGGGGUAACACUUUGGGAACAGGUGGUCCCAGGUUGUUUC	2.53
UCCUGUGCUACACAUCGUAUGUACCGAAUCGGGCCCCCCGGGGCCCCCCGGGCCCCCCGGAAAGUAUUAUGUUACGCCGUUCGGAUCUGC	-0.939
CACAGACAACACGCACCCACACAGACACAGAGGGGAGGGGUUGGGAUGGGGACAGGGUGCACAGCAGGGCGGGGUAGGACCCCAGCCCCU	-0.076

For quick reference, copied from above (study 1):
Modification	mean fluorescence intensity
2'F-ANA at 1 5 7 12	114 a.u.
2'F-ANA at 1 5 8 9 10 11 15	46.4 a.u.
2'F-ANA at 12	1020 a.u.
2'F-ANA at 1 3 4 6 8 9 10 11 14 15	52.7 a.u.
2'F-ANA at 2 5 9 13 14 15	62.8 a.u.
2'F-ANA at 1 2 3 4 5 6 7 8 12 13 14	58 a.u.
2'F-ANA at 1 5 6 8 9 10 11 12 13 15	52.7 a.u.
